Earlier results that unrelated publications cite.
± marks the error that the study gave. Converted amounts (≈) assume the structure as drawn.

CC(C(=O)O)c1ccc(-c2ccccc2)c(F)c1 (stereo not shown) — Vd (human): 6 to 8 L
CNCc1cc(-c2ccccc2F)n(S(=O)(=O)c2cccnc2)c1 — Tmax (human, plasma; 10 mg multiple dose, observed clinical data): 1.5 h
OCc1cc(C(O)CNCCCCCCOCCCCc2ccccc2)ccc1O (stereo not shown) — Clast (human, plasma; inhaled, dose not given): 0.1 nM
CN(CCOc1ccc(CC2SC(=O)NC2=O)cc1)c1ccccn1 (stereo not shown) — Cmax (plasma; concentration not given, total, steady state): 1700 nM
C=CCc1ccc(O)c(-c2ccc(O)c(CC=C)c2)c1 — solubility (water): < 1000 µg/mL
CC(C)NC(=O)COc1cccc(-c2nc(Nc3ccc4[nH]ncc4c3)c3ccccc3n2)c1 — exposure increase (human; concentration not given, fed; baseline: fasted): ~2 fold
Cc1cnc(NC(=O)C2=C(O)c3ccccc3S(=O)(=O)N2C)s1 — solubility (water): < 1000 µg/mL
O=C(CCCN1CCC(O)(c2ccc(Cl)cc2)CC1)c1ccc(F)cc1 — free Cmax (human): 4.26 nM
Cc1cc(-c2nccc3c2ccn3CC(=O)Nc2ccc(-c3cnccn3)cn2)ccn1 — Cmax, total (dog; 3 mg/kg/day, 1 month, repeat dosing): 640 nM
CCCCNC(=O)NS(=O)(=O)c1ccc(C)cc1 — clearance (human): 0.22 mL/min/kg
O=C(O)C[C@H](O)C[C@H](O)/C=C/c1c(C2CC2)nc2ccccc2c1-c1ccc(F)cc1 — AUC increase (Sprague Dawley rats; dose not given, added: silymarin; baseline: without silymarin): 1.84 fold
Cn1c(Cn2ccc(C(F)(F)F)c(Oc3cc(Cl)cc(C#N)c3)c2=O)n[nH]c1=O — Nasopharyngitis incidence (human subjects; dose not given, up to 48 weeks): 7.8%
COc1ccc(Cl)cc1C(=O)NCCc1ccc(S(=O)(=O)NC(=O)NC2CCCCC2)cc1 — solubility (FaSSIF; literature value): 4.45 µg/mL (≈ 9 µM)
CC(C(=O)NCC(=O)NCC(CNC(=O)CNC(=O)C(C)N1CCN(CC(=O)[O-])CCN(CC(=O)[O-])CCN(CC(=O)[O-])CC1)(CNC(=O)CNC(=O)C(C)N1CCN(CC(=O)[O-])CCN(CC(=O)[O-])CCN(CC(=O)[O-])CC1)CNC(=O)CNC(=O)C(C)N1CCN(CC(=O)[O-])CCN(CC(=O)[O-])CCN(CC(=O)[O-])CC1)N1CCN(CC(=O)[O-])CCN(CC(=O)[O-])CCN(CC(=O)[O-])CC1.[Gd+3].[Gd+3].[Gd+3].[Gd+3] (stereo not shown) — T1 relaxivity (human plasma; 1.41 T): 11.8 L/(mmol Gd·s)
COc1cc2c(Nc3ccc(Br)cc3F)ncnc2cc1OCC1CCN(C)CC1 — free Cmax (human): 267 nM
Cc1nc(NC(=O)N2CCC[C@H]2C(N)=O)sc1-c1ccnc(C(C)(C)C(F)(F)F)c1 — dose excreted (human, feces; oral, 400 mg, radiolabelled, fasted; baseline: dose): 81%
CC(C)(CO)c1cc2cc(NC(=O)C3(c4ccc5c(c4)OC(F)(F)O5)CC3)c(F)cc2n1C[C@@H](O)CO — CLint (human liver microsomes): 7.36 µL/min/mg protein
Nc1ccn([C@@H]2O[C@H](CO)[C@@H](O)C2(F)F)c(=O)n1 — grade 1-4 neutropenia incidence (metastatic pancreatic cancer patients; dose not given): 58%
Nc1nc2[nH]cc(CCc3ccc(C(=O)N[C@@H](CCC(=O)O)C(=O)O)cc3)c2c(=O)[nH]1 — solubility (water): < 1000 µg/mL
Nc1nc(O)c2ncn(COC(CO)CO)c2n1 — oral bioavailability (human; 500 mg every 3 h, 6 doses total): 8.84%
O=C(c1cc(Cc2n[nH]c(=O)c3ccccc23)ccc1F)N1CCN(C(=O)C2CC2)CC1 — AUC(0-inf) (male; 80 mg/kg): 14400 ng·h/mL
C=C[C@@H]1C[C@]1(NC(=O)[C@@H]1C[C@@H]2CN1C(=O)[C@H](C(C)(C)C)NC(=O)O[C@@H]1C[C@H]1CCCCCc1nc3ccc(OC)cc3nc1O2)C(=O)NS(=O)(=O)C1CC1 — unchanged drug excreted in faeces (bile duct-cannulated rats; oral, dose not given): 73%
CC(=O)O[C@H]1C(=O)[C@@]2(C)[C@H]([C@H](OC(=O)c3ccccc3)[C@]3(O)C[C@H](OC(=O)[C@H](O)[C@@H](NC(=O)c4ccccc4)c4ccccc4)C(C)=C1C3(C)C)[C@]1(OC(C)=O)CO[C@@H]1C[C@@H]2O — grade 4 peripheral neuropathy incidence (pretreated metastatic breast cancer patients; 80 mg/m2 weekly, monotherapy): 0%
O=C(O)c1cccnc1Nc1cccc(C(F)(F)F)c1 — Cmax (plasma; concentration not given, total, steady state): 25200 nM
COc1c2occc2cc2ccc(=O)oc12 — diarrhoea incidence (human; concentration not given, clinical): 0%
N#C[C@@]1(c2ccc3c(N)ncnn23)O[C@H](CO)[C@@H](O)[C@H]1O — half-life (dog; intravenous, 2 mg/kg, unadjusted NCATS data): 4.99 h
CCc1c(N(CC)C2CCOCC2)cc2oc(CN3CCCCC3)cc2c1C(=O)NCc1c(C)cc(C)[nH]c1=O — nausea incidence (patients; dose not given): 21%
O=C1Nc2ccc(Cl)cc2[C@@](C#CC2CC2)(C(F)(F)F)O1 — CLint (human liver microsomes): 0.694 µL/min/mg protein
CC(C)[C@H](N)C(=O)OCC(CO)OCn1cnc2c(=O)[nH]c(N)nc21 (stereo partly shown) — oral bioavailability (monkey; 30 mg/kg): 42%
C[C@@H](O[C@H]1OCCN(Cc2n[nH]c(=O)[nH]2)[C@H]1c1ccc(F)cc1)c1cc(C(F)(F)F)cc(C(F)(F)F)c1 — solubility (water): < 1000 µg/mL
CN[C@H]1CC[C@@H](c2ccc(Cl)c(Cl)c2)c2ccccc21 — free Cmax (plasma): 1.25 nM
Cc1cn([C@H]2C=C[C@@H](CO)O2)c(=O)[nH]c1=O — oral bioavailability (human): 100%
COc1ccc(-c2oc3c(OC)c(OC)c(OC)c(O)c3c(=O)c2OC)cc1O — toxicity (zebrafish Danio rerio embryos; dose not given): not toxic
CN(C)C(=O)c1cc2cnc(Nc3ccc(N4CCNCC4)cn3)nc2n1C1CCCC1 — terminal half-life (dog): 18 h
C#C[C@]1(O)CC[C@H]2[C@@H]3CCC4=CC(=NO)CC[C@@H]4[C@H]3CC[C@@]21CC (mixture of isomers) — Cmax, mean (human, fasted; 0.18 mg norgestimate, single dose): 0.779 ng/mL
CC(CO)(CO)CO — solubility limit (water): > 2500 mM
Nc1ccn([C@@H]2CS[C@H](CO)O2)c(=O)n1 — oral bioavailability (human): 86%
CCOc1c([C@H](C)n2nc(C)c3c(N)ncnc32)cc(Cl)c(F)c1[C@@H]1CNC(=O)C1 — AUC(0-inf) increase (human; oral, 10 mg once daily, added: itraconazole; baseline: compound alone): 107%
N[C@@H](CC(=O)N1CCn2c(nnc2C(F)(F)F)C1)Cc1cc(F)c(F)cc1F — crossover pressure (supercritical CO2): 160 to 180 bar
Cc1nc2n(c(=O)c1CCN1CCC(c3noc4cc(F)ccc34)CC1)CCCC2 — free Cmax (human): 2.68 nM
c1ccc2c(c1)ccc1ccccc12 — Km (substrate; human liver microsomes): 0.00051 mM
CC(C)(C)c1cc(C(C)(C)C)c(NC(=O)c2c[nH]c3ccccc3c2=O)cc1O — CLint (human liver microsomes): 78.8 µL/min/mg protein
C[C@@H](Oc1ccc(S(C)(=O)=O)cc1C(=O)N1C[C@@H]2C[C@]2(c2cc(C(F)(F)F)on2)C1)C(F)(F)F — Cmax increase with food (human; oral, dose not given, tablet; baseline: fasted): 42%
CCCCc1nc(Cl)c(CO)n1Cc1ccc(-c2ccccc2-c2nn[nH]n2)cc1 — crossover pressure (supercritical CO2): 190 to 210 bar
CCCSc1ccc2nc(NC(=O)OC)[nH]c2c1 — solubility (FaSSIF; literature value): 2 µg/mL (≈ 7.54 µM)
C[Si](C)(C)O[Si](C)(C)O[Si](C)(C)O[Si](C)(C)C — log KOW (slow-stirring method; 1-octanol/water; 25 °C): 8.13
CC(C)(Sc1cc(C(C)(C)C)c(O)c(C(C)(C)C)c1)Sc1cc(C(C)(C)C)c(O)c(C(C)(C)C)c1 — solubility (water): < 1000 µg/mL
CCN1CCN(Cc2ccc(Nc3ncc(F)c(-c4cc(F)c5nc(C)n(C(C)C)c5c4)n3)nc2)CC1 — grade ≥3 anemia incidence (patients; dose not given, monotherapy): 4%
O=C(CCC(C(=O)[O-])N1CCN(C(CCC(=O)NCC(O)CO)C(=O)[O-])Cc2cccc(n2)CN(C(CCC(=O)NCC(O)CO)C(=O)[O-])CC1)NCC(O)CO.[Gd+3] (stereo not shown) — half-life (0.1 mmol/kg): 1.73 ± 0.26 h
CCN1CCN(Cc2ccc(Nc3ncc(F)c(-c4cc(F)c5nc(C)n(C(C)C)c5c4)n3)nc2)CC1 — Cmin (human; 100 mg twice daily multiple dose, tablet): 159 ng/mL
CCN1CCN(Cc2ccc(Nc3ncc(F)c(-c4cc(F)c5nc(C)n(C(C)C)c5c4)n3)nc2)CC1 — Tmax (rat; oral, single radiolabelled dose): 6.7 to 8 h
CC(C)C[C@H](NC(=O)[C@H](CCc1ccccc1)NC(=O)CN1CCOCC1)C(=O)N[C@@H](Cc1ccccc1)C(=O)N[C@@H](CC(C)C)C(=O)[C@@]1(C)CO1 — patients with cardiovascular effects (human patients; dose not given): ≤ 30%
C[C@H](NCc1ccc(OCc2ccccc2F)cc1)C(N)=O — free Cmax (plasma): 0.186 nM
C[Si]1(C)O[Si](C)(C)O[Si](C)(C)O[Si](C)(C)O[Si](C)(C)O1 — log KOW (HPLC retention correlation; 1-octanol/water; 25 °C): 5.2
CCCN(CCC)S(=O)(=O)c1ccc(C(=O)O)cc1 — HSA binding, literature value (human serum albumin; concentration not given): 95%
C=CC(=O)N1CCC([C@@H]2CCNc3c(C(N)=O)c(-c4ccc(Oc5ccccc5)cc4)nn32)CC1 — AUC(0-8) (human patients, plasma; oral, 160 mg twice daily, day 8): 1200 ± 474 ng·h/mL
O=C(CCCCCCC(=O)Nc1ccccc1)NO — solubility (water): < 1000 µg/mL
COCCc1ccc(OCC(O)CNC(C)C)cc1 (stereo not shown) — Cmax, geometric mean (human; 100 mg): 21.9 ng/mL

Excerpt of the above:
CN(CCOc1ccc(CC2SC(=O)NC2=O)cc1)c1ccccn1 (stereo not shown) — Cmax (plasma; concentration not given, total, steady state): 1700 nM
C[Si](C)(C)O[Si](C)(C)O[Si](C)(C)O[Si](C)(C)C — log KOW (slow-stirring method; 1-octanol/water; 25 °C): 8.13
C=CC(=O)N1CCC([C@@H]2CCNc3c(C(N)=O)c(-c4ccc(Oc5ccccc5)cc4)nn32)CC1 — AUC(0-8) (human patients, plasma; oral, 160 mg twice daily, day 8): 1200 ± 474 ng·h/mL
COc1cc2c(Nc3ccc(Br)cc3F)ncnc2cc1OCC1CCN(C)CC1 — free Cmax (human): 267 nM
O=C(O)c1cccnc1Nc1cccc(C(F)(F)F)c1 — Cmax (plasma; concentration not given, total, steady state): 25200 nM
